Results of several laboratories.
Compare with care: the assays were run in different laboratories. ± gives the spread as reported.
PDK1: [Pyruvate dehydrogenase (acetyl-transferring)] kinase isozyme 1, mitochondrial (PDK1, Homo sapiens, UniProt Q15118)
Chain of UniProt Q15118 (whole entry, looked up): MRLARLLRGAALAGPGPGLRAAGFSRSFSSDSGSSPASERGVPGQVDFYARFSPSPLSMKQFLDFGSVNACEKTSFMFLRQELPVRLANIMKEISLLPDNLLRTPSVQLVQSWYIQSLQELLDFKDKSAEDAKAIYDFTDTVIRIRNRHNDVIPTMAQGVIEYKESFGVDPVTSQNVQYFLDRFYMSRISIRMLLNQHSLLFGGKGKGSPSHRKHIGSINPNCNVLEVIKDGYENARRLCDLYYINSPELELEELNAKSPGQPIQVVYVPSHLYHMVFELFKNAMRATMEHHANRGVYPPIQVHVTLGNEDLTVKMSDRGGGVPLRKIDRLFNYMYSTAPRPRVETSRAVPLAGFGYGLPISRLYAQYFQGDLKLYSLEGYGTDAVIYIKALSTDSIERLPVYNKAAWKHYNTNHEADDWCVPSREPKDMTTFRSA
AKR1C2: Aldo-keto reductase family 1 member C2 (AKR1C2, Homo sapiens, UniProt P52895)
Chain of UniProt P52895 (whole entry, looked up): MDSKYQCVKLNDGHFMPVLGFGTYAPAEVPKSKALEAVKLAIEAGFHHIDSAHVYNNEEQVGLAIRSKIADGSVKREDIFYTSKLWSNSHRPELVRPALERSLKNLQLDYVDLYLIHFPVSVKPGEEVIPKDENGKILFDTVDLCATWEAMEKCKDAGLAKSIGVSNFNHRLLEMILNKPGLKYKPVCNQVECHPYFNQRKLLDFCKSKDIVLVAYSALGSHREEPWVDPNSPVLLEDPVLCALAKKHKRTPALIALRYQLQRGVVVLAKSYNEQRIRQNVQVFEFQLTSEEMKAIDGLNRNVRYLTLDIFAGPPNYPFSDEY
hdac10: Polyamine deacetylase HDAC10 (hdac10, Danio rerio, UniProt F1QCV2)
Chain of UniProt F1QCV2 (whole entry, looked up): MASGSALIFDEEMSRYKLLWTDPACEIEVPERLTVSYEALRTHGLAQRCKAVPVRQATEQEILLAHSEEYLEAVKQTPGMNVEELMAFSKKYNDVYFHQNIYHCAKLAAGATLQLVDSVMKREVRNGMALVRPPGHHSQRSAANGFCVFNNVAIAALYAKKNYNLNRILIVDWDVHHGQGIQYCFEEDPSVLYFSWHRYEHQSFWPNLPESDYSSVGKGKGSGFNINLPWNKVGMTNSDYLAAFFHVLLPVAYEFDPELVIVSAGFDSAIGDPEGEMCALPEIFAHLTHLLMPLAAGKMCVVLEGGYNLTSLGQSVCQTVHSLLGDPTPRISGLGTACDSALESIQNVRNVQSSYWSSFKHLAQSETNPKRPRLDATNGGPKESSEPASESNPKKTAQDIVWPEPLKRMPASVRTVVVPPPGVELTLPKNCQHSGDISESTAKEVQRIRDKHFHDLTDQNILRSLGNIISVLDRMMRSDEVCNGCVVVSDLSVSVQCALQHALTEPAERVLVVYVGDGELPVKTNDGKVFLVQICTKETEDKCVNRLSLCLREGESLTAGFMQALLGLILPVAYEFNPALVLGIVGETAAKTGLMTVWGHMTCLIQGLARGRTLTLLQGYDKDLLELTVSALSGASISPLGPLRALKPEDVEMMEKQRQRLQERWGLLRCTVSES
Ectonucleoside triphosphate diphosphohydrolase 3: Ectonucleoside triphosphate diphosphohydrolase 3 (Homo sapiens, UniProt O75355)
Chain of UniProt O75355 (whole entry, looked up): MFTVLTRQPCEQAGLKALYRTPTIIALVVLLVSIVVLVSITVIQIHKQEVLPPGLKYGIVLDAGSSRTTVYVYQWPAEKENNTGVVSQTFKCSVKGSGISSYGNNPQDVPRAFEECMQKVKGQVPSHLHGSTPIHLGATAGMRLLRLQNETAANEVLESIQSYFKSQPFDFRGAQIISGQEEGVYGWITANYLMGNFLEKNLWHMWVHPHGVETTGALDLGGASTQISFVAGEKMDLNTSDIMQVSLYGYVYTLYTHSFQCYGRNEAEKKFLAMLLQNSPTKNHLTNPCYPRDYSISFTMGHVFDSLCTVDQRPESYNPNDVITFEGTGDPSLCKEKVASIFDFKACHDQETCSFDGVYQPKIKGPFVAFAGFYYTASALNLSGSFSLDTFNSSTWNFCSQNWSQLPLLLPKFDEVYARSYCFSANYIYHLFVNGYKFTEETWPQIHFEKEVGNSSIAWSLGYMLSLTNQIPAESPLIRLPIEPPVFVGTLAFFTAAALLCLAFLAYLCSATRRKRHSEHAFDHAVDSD
PNLIP: Pancreatic triacylglycerol lipase (PNLIP, Sus scrofa, UniProt P00591)
Chain of UniProt P00591 (whole entry, looked up): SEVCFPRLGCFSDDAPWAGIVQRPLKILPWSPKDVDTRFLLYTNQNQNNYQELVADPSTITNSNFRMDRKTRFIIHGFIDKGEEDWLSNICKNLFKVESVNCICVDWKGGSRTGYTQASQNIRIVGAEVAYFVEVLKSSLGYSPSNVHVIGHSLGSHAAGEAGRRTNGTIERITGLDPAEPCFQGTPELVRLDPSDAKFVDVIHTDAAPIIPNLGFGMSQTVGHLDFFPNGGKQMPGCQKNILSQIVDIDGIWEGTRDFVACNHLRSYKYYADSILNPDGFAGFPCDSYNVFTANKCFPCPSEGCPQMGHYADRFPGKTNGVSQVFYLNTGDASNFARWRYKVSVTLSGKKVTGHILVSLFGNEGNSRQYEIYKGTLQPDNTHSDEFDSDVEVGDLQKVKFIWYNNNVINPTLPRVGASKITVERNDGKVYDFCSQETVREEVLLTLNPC
CDK4 with cyclin D3: Cyclin-dependent kinase 4, with cyclin D3 (CDK4, Homo sapiens, UniProt P11802)
Chain of UniProt P11802 (whole entry, looked up): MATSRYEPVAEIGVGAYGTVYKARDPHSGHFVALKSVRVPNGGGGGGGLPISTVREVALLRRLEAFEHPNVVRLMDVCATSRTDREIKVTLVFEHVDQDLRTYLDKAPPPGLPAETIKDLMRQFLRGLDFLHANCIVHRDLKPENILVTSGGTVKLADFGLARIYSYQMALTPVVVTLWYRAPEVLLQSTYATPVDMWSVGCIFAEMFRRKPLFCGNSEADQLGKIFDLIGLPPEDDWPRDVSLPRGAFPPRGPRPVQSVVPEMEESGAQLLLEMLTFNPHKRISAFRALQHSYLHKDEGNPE
Sigmar1: Sigma non-opioid intracellular receptor 1 (Sigmar1, Rattus norvegicus, UniProt Q9R0C9)
Chain of UniProt Q9R0C9 (whole entry, looked up): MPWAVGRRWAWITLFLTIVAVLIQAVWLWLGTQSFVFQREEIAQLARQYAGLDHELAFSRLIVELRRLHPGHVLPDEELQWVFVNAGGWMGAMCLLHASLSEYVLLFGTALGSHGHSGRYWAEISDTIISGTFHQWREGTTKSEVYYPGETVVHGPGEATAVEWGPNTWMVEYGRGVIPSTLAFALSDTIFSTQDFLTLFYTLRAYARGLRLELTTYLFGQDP
AMY2: Pancreatic alpha-amylase (AMY2, Sus scrofa, UniProt P00690)
Chain of UniProt P00690 (whole entry, looked up): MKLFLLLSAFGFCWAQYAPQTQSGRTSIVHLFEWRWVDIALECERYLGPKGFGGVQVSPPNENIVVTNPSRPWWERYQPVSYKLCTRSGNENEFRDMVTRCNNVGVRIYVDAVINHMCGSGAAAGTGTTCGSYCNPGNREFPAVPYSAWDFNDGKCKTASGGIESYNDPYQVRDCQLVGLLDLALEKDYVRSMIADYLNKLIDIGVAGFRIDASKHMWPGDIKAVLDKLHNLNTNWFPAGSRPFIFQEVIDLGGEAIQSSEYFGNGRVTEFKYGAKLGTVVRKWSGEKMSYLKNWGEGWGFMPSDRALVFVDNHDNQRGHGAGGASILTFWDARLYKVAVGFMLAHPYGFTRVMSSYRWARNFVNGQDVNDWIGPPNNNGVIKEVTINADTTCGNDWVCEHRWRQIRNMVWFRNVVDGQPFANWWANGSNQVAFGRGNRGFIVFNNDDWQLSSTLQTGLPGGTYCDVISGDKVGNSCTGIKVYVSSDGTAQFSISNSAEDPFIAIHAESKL
ELANE: Neutrophil elastase (ELANE, Homo sapiens, UniProt P08246)
Chain of UniProt P08246 (whole entry, looked up): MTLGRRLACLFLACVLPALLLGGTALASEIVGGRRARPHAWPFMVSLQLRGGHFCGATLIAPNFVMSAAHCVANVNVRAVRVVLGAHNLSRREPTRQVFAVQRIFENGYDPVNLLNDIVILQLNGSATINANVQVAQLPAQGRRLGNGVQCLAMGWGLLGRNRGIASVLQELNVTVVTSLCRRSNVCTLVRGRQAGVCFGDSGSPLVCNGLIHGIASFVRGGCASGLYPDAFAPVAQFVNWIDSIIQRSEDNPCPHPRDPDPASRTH
Chain of UniProt Q8R2Y0 (whole entry, looked up): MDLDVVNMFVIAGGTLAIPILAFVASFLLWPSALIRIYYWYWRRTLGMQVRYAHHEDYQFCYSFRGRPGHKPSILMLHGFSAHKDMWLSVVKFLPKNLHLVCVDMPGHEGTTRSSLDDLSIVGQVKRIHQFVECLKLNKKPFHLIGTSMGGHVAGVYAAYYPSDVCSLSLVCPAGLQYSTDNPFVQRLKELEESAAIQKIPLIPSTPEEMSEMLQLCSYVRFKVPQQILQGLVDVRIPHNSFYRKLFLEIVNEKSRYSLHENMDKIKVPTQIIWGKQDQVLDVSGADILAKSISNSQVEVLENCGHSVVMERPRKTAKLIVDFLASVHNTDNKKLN
Chain of UniProt P18031 (whole entry, looked up): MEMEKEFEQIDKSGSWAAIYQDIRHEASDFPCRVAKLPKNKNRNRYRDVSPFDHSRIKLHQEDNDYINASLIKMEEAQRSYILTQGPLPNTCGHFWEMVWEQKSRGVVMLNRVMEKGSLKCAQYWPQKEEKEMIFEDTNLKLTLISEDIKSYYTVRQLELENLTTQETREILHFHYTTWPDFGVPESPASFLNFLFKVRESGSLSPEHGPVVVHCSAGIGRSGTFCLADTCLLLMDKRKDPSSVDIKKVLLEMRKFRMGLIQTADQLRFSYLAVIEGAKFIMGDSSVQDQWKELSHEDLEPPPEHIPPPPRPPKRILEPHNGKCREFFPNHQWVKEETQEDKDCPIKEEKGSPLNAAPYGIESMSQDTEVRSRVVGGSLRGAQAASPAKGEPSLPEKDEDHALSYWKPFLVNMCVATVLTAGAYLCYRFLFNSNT
Chain of UniProt P45748 (whole entry, looked up): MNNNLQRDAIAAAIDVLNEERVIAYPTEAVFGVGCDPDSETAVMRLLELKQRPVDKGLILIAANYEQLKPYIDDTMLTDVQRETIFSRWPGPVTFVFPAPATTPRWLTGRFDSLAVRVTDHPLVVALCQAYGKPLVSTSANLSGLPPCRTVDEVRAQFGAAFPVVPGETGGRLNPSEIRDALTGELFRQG

Compound	target	assay	system	setting	inhibition
CC(C)Oc1ccc(C(=O)C(Cl)Cl)cc1[N+](=O)[O-]	PDK1	enzyme activity, inhibitor, ATP luminescence	–	10 µM	22.3%
C[C@@]12CC[C@@H]3c4ccc(O)c(I)c4CC[C@H]3[C@@H]1CCC2=O	AKR1C2	enzyme activity, inhibitor, absorbance	–	10 µM, pH 9	16.5%
CCC(=O)N(C)c1ccc(Cl)c(Cl)c1	C-C chemokine receptor type 1 (CCR1, Homo sapiens, UniProt P32246)	ligand displacement, radioligand	–	10 µM	16.2%
CC1=C2C(=O)C3CC[C@@H](C)C2(CC1)C3(C)C (stereo partly drawn)	α-glucosidase (Saccharomyces cerevisiae)	inhibitor	–	10 µg/mL, added: pNPG	34.5 ± 1.3%
COc1ccc(N2C(=O)CSC2c2cccc(Br)c2)c(OC)c1 (stereo not drawn)	ACTR3/Actin-related protein 2 (Homo sapiens, UniProt P61158+P61160)	actin polymerization, pyrenyl-actin	–	concentration not given	inhibited
C[C@H](NC(=O)CNC(=O)[C@H](Cc1ccc(O)cc1)NC(=O)[C@@H](N)CSSC[C@H](N)C(=O)N[C@@H](Cc1ccc(O)cc1)C(=O)NCC(=O)N[C@@H](C)C(=O)N[C@@H](CCCCN)C(N)=O)C(=O)N[C@@H](CCCCN)C(N)=O	Calpain-10, mitochondrial (Oryctolagus cuniculus, UniProt G1TPK4)	enzyme activity, inhibitor	rabbit mitochondrial matrix	concentration not given, presence versus absence of Ca2+, added: Ca2+ 6 mM	no effect
COc1cc(C(=O)NC2CCC(N3CCN(CC4CCC5(CCCC5)C4)CC3)CC2)c(F)cc1Nc1ncc2c(n1)N(C1CCCC1(F)F)CC(F)(F)C(=O)N2C (stereo not drawn)	Tyrosine-protein kinase JAK1 (JAK1, Homo sapiens, UniProt P23458)	cell-free assay, TR-FRET	–	10 µM	0.9%
O=C(/C=C/c1cccc(Cl)c1)NO	hdac10	–	–	0.1 µM	18%
O=C(Nc1ccc(Cl)cc1)c1cccc(S(=O)(=O)N2CCOCC2)c1	Ectonucleoside triphosphate diphosphohydrolase 3	enzyme activity, inhibitor, absorbance	–	100 µM	9%
C[C@]12CC[C@@H]3c4cc(Br)c(O)cc4CC[C@H]3[C@@H]1CCC2=O	AKR1C2	enzyme activity, inhibitor, absorbance	–	10 µM, pH 9	36.4%
O=C(O[C@@H]1Cc2c(O)cc(O)cc2O[C@@H]1c1cc(O)c(O)c(O)c1)c1cc(O)c(O)c(O)c1	PNLIP	enzyme activity, inhibitor	–	10 µM	93.8%
O=C(/C=C/c1ccc2c(c1)sc1ccccc12)NO	hdac10	–	–	0.1 µM	< 10%
CC(C)Cn1cc(-c2ccnc(Nc3ccc(N4CCN(CCCCCCC(=O)NO)CC4)cc3)n2)nn1	CDK4 with cyclin D3	enzyme activity, inhibitor, TR-FRET	–	5 µM	88.7%
Cc1ccc(C(=O)/C=C/c2ccc3c(c2)OCCO3)s1	Amine oxidase [flavin-containing] B (MAOB, Homo sapiens, UniProt P27338)	enzyme activity, inhibitor, fluorescence	–	1 µM	69.9%
C[C@@H](O)[C@H](NC(=O)CP(=O)(O)OC[C@H]1O[C@@H](n2cnc3c(N)ncnc32)[C@H](O)[C@@H]1O)C(=O)O	Threonylcarbamoyl-AMP synthase (tsaC, Escherichia coli, UniProt P45748)	TC-AMP formation, inhibitor	–	concentration not given	no inhibition
C[C@@]12CC[C@@H]3c4ccc(O)c(Br)c4CC[C@H]3[C@@H]1CCC2=O	AKR1C2	enzyme activity, inhibitor, absorbance	–	100 µM, pH 9	98.3%
C/C(=N\OCCN(C)Cc1ccccc1)c1cccc(C(F)(F)F)c1	Sigmar1	radioligand binding	–	10 µM	67.9%
CC(C)(O)CC(=O)CC(C(=O)O)C1CC[C@]2(C)C1CCC1[C@@]3(C)CC[C@H](O)C(C)(C)C3CC[C@]12C (stereo partly drawn)	Tyrosine-protein phosphatase non-receptor type 1 (PTPN1, Homo sapiens, UniProt P18031)	enzyme activity, inhibitor, absorbance	–	50 µM	80.2%
C/C(=N\OCCCCN1CCOCC1)c1ccc(C(F)(F)F)cc1	Sigmar1	radioligand binding	–	10 µM	81.8%
CN(C)S(=O)(=O)c1ccc(S(=O)(=O)N2CCC(n3c(=O)[nH]c4ccccc43)CC2)cc1	mfd (Escherichia coli, UniProt P30958)	ATP binding, ITC	–	concentration not given	~70%
COc1ccc(NC(=O)c2cn(Cc3ccc(F)cc3)cc(O)c2=O)cc1	Tripartite terminase subunit 3, C-terminal nuclease domain (Human betaherpesvirus 5, UniProt P16732)	endonuclease activity, inhibitor, ELISA	–	20 µM	7%
C[C@]12CC[C@@H]3c4cc(Cl)c(O)cc4CC[C@H]3[C@@H]1CCC2=O	AKR1C2	enzyme activity, inhibitor, absorbance	–	100 µM, pH 9	88%
C/C(=N\OCCN1CCOCC1)c1ccc(C(F)(F)F)cc1	Sigmar1	radioligand binding	–	10 µM	45.9%
Oc1cccnc1O	1-deoxy-D-xylulose 5-phosphate reductoisomerase (Escherichia coli K-12, UniProt P45568)	enzyme activity, inhibitor, absorbance	–	100 µM	91.4%
Cc1cccc(/C=C/C(=O)c2cnn(-c3ccccc3)c2C)c1	AMY2	enzyme activity, inhibitor, absorbance	–	40 µM	14.9%
COc1ccc(Cn2ccc3ccc(C(=O)NO)cc32)cc1	hdac10	–	–	1 µM	17%
CC(=O)OC1CCC2(C)C(CCC3(C)C2CCC2C(C4=CC(C=C(C)C)OC4=O)CCC23C)C1(C)C (stereo not drawn)	α-glucosidase (yeast)	–	–	50 µM, added: PNPG substrate	53.6 ± 3.64%

Compound	target	assay	system	setting	inhibition
Cc1nc2ccccc2n1S(=O)(=O)c1ccc2c(c1)C(=O)CC2=O	ELANE	enzyme activity, inhibitor, fluorescence	–	1 µM	25.2%
Clc1nc(-c2ccccc2)nc2scc(-c3ccccc3)c12	Programmed cell death 1 ligand 1, with PD-1 (CD274, Homo sapiens, UniProt Q9NZQ7)	PD-1/PD-L1 binding, inhibitor, TR-FRET	–	25 µM	≥ 20%
O=C(O[C@H](CO)C(F)(F)F)N1C[C@@H]2[C@H](C1)[C@H]2c1ccn(-c2ccc(F)nc2)n1	Monoacylglycerol lipase ABHD6 (Abhd6, Mus musculus, UniProt Q8R2Y0)	ABPP	mouse brain lysate	0.2 µmol/L	no inhibition
C/C(=N\OCCN1CCCCC1)c1ccccc1C(F)(F)F	Sigmar1	radioligand binding	–	10 µM	94.6%
O=C(/C=C/c1ccc(Cl)cc1Cl)NO	hdac10	–	–	1 µM	> 95%
Clc1ccc(-c2cs/c(=N/N=C/c3ccc(N4CCOCC4)cc3)n2-c2ccccc2)cc1	Carbonic anhydrase 2 (CA2, Bos taurus, UniProt P00921)	enzyme activity, inhibitor, absorbance	–	500 µM	80.5%
S=C(Nc1ccccc1Cl)Nc1cccc2cccnc12	Beta-glucuronidase (uidA, Escherichia coli, UniProt P05804)	enzyme activity, inhibitor, absorbance	–	100 µM	50.9%
O=C(/C=C/c1ccccc1Br)NO	hdac10	–	–	0.1 µM	23%
COc1cc2c(cc1I)[C@H]1CC[C@@]3(C)C(=O)CC[C@H]3[C@@H]1CC2	AKR1C2	enzyme activity, inhibitor, absorbance	–	100 µM, pH 9	5%
O=C(NO)c1ccc(Cl)c(NC(=O)c2cccc(OCc3ccccc3)c2)c1	hdac10	–	–	0.1 µM	11%
CC(C)(C)OC(=O)N1CCC[C@H](O)[C@H]1CC(=O)Cn1cnc2cc(Br)c(Cl)cc2c1=O (relative stereo)	Bifunctional glutamate/proline--tRNA ligase, prolyl-tRNA synthetase domain (EPRS1, Homo sapiens, UniProt P07814)	enzyme activity	–	concentration not given, added: [14C]-proline	no inhibition
Oc1cc(O)c2c(c1)O[C@H](c1cc(O)c(O)c(O)c1)[C@@H](O)C2 (racemic)	PNLIP	enzyme activity, inhibitor	–	10 µM	56.7%
NC(=O)c1ccc(C(=O)NOCc2ccc(Sc3cccc(Cl)c3)c(C(F)(F)F)c2)cc1	Histone deacetylase 4 (HDAC4, Homo sapiens, UniProt P56524)	cell-free assay, inhibitor	–	100 µM	0.4%
CN(C)c1ccc(C(=O)NCC2CCC(C(=O)NO)CC2)cc1 (stereo not drawn)	hdac10	–	–	1 µM	19%
CC(C)Cn1cc(-c2nc(Nc3ccc(OCCCCCCC(=O)NO)cc3)ncc2F)nn1	CDK4 with cyclin D3	enzyme activity, inhibitor, TR-FRET	–	5 µM	62.6%
O=C(CN1C(C(=O)c2ccccc2)=C(O)c2ccccc2S1(=O)=O)Nc1ccccc1Br	AMY2	enzyme activity, inhibitor, absorbance	–	500 µM	70.8%
O=C(O)c1cc(S(=O)(=O)N2CCOCC2)ccc1Cl	Ectonucleoside triphosphate diphosphohydrolase 3	enzyme activity, inhibitor, absorbance	–	100 µM	46%
C[C@]12CC[C@@H]3c4cc(Br)c(O)c(Br)c4CC[C@H]3[C@@H]1CCC2=O	AKR1C2	enzyme activity, inhibitor, absorbance	–	100 µM, pH 9	99.8%
Cc1cccc(NCC(=O)Nc2nc3ccccc3s2)c1	Phosphatidylinositol 4,5-bisphosphate 3-kinase catalytic subunit gamma isoform (PIK3CG, Homo sapiens, UniProt P48736)	enzyme activity, inhibitor, ADP detection	–	100 µM	48%
C/C(=N\OCCN1CCOCC1)c1cccc(C(F)(F)F)c1	Sigmar1	radioligand binding	–	10 µM	86.7%
O=C1CC(=O)c2cc(S(=O)(=O)n3cnc4ccccc43)ccc21	ELANE	enzyme activity, inhibitor, fluorescence	–	1 µM	19.8%
Cn1nc(-c2cccc(O)c2)c2c(N)ncnc21	Protein-tyrosine kinase 6 (PTK6, Homo sapiens, UniProt Q13882)	enzyme activity, inhibitor, ADP detection	–	0.2 µM	91%
CC1CCN(C(=O)CCc2nc(CN3CCN(S(=O)(=O)c4ccc(Cl)cc4)CC3)no2)CC1	Sodium channel protein type 9 subunit alpha (SCN9A, Homo sapiens, UniProt Q15858)	sodium current, whole-cell patch clamp	HEK293, stable	20 µM	24 ± 4%
O=c1c(-c2nc3ccccc3s2)cc2c(n1NS(=O)(=O)c1ccc(Cl)cc1)CCCCCC2	Ubiquitin carboxyl-terminal hydrolase 7 (USP7, Homo sapiens, UniProt Q93009)	enzyme activity, inhibitor, fluorescence	–	10 µg/mL	55%
CC[C@H](C)[C@H](NC(=O)[C@H](Cc1ccccc1)C[C@H](O)[C@@H](N)COc1ccc(-c2ccc(F)cc2)c(OCCCOC)c1)C(=O)NCc1ccc(Cl)cc1	Beta-secretase 1 (BACE1, Homo sapiens, UniProt P56817)	Aβ production, ELISA	HEK293 expressing APP751 Swedish	1 µM	19%
O=C(NC1CCCC1)c1cccc(S(=O)(=O)NC2CCCC2)c1	Ectonucleoside triphosphate diphosphohydrolase 8 (Homo sapiens, UniProt Q5MY95)	enzyme activity, inhibitor, absorbance	–	100 µM	35%
N#Cc1c(NC(=O)CCl)sc2c1CCC(c1ccccc1)C2 (stereo not drawn)	PDK1	enzyme activity, inhibitor, ATP luminescence	–	100 µg/mL	11.2%

Repeated from above:
Compound	target	assay	system	setting	inhibition
C[C@@]12CC[C@@H]3c4ccc(O)c(Br)c4CC[C@H]3[C@@H]1CCC2=O	AKR1C2	enzyme activity, inhibitor, absorbance	–	100 µM, pH 9	98.3%
C/C(=N\OCCN(C)Cc1ccccc1)c1cccc(C(F)(F)F)c1	Sigmar1	radioligand binding	–	10 µM	67.9%
CC(C)(O)CC(=O)CC(C(=O)O)C1CC[C@]2(C)C1CCC1[C@@]3(C)CC[C@H](O)C(C)(C)C3CC[C@]12C (stereo partly drawn)	Tyrosine-protein phosphatase non-receptor type 1 (PTPN1, Homo sapiens, UniProt P18031)	enzyme activity, inhibitor, absorbance	–	50 µM	80.2%
C/C(=N\OCCCCN1CCOCC1)c1ccc(C(F)(F)F)cc1	Sigmar1	radioligand binding	–	10 µM	81.8%
